Experimental data collected from several papers.
Compare with care: the assays were run in different laboratories. Numbers after ± are the reported error.

Structure (SMILES)	test	system	setting	tissue uptake [%ID/g]
CC[C@H](C)[C@H](NC(=O)[C@H](CCCCN)NC(=O)CNC(=O)[C@H](CC(C)C)NC(=O)[C@H](Cc1ccccc1)NC(=O)[C@H](CCCCN)NC(=O)[C@H](CO)NC(=O)[C@H](Cc1ccccc1)NC(=O)[C@H](Cc1c[nH]c2ccccc12)NC(=O)[C@H](CCC(N)=O)NC(=O)[C@@H](NC(=O)[C@H](Cc1ccccc1)NC(=O)CCCCCNC(=O)CN1CCN(CC(=O)O)CCN(CC(=O)O)CCN(CC(=O)O)CC1)C(C)C)C(=O)N[C@@H](CCC(=O)O)C(=O)N1CCC[C@H]1C(=O)N[C@@H](CC(=O)O)C(=O)N[C@H](C(=O)N[C@@H](CO)C(=O)N[C@@H](CCC(N)=O)C(=O)N[C@H](C(=O)N[C@@H](CCC(N)=O)C(=O)N[C@@H](CC(=O)O)C(=O)N1CCC[C@H]1C(=O)N[C@@H](CC(N)=O)C(=O)N[C@@H](CC(=O)O)C(=O)N[C@@H](CCC(N)=O)C(=O)N[C@@H](Cc1ccc(O)cc1)C(=O)N[C@@H](CCC(=O)O)C(=O)N1CCC[C@H]1C(=O)N[C@@H](Cc1ccccc1)C(=O)O)C(C)C)C(C)C [copper-64 labelled]	–	C57BL/6 mice, stomach	added: LPS 0.1 mg/kg intratracheal	2.39 ± 0.5
CC[C@H](C)[C@H](NC(=O)[C@H](CCCNC(=N)N)NC(=O)[C@H](CCCCN)NC(=O)[C@H](Cc1ccc(O)cc1)NC(=O)[C@H](CC(=O)O)NC(=O)[C@H](C)NC(=O)CNC(=O)CCOCCOCCOCCNC(=O)CN1CCN(CC(=O)O)CCN(CC(=O)O)CCN(CC(=O)O)CC1)C(=O)N[C@H](C(=O)N[C@H](C(=O)N[C@@H](CCCCN)C(=O)N[C@H](C(=O)N[C@@H](CC(N)=O)C(N)=O)C(C)C)C(C)C)[C@@H](C)O [copper-64 labelled]	ex vivo gamma counting	C57BL/6J male mice, B16-F10 tumour, bone	intravenous, 1.85 MBq, 5 min	1.54 ± 0.083
CC(C)C[C@@H](NC(=O)[C@@H](CCCNC(=N)N)NC(=O)[C@@H](Cc1c[nH]cn1)NC(=O)[C@@H](Cc1c[nH]c2ccccc12)NC(=O)[C@@H](Cc1c[nH]cn1)NC(=O)[C@@H](Cc1ccccc1)NC(=O)[C@H](NC(=O)[C@@H](Cc1ccc(O)cc1)NC(=O)CNC(=O)CNC(=O)CCOCCOCCOCCNC(=O)CN1CCN(CC(=O)O)CCN(CC(=O)O)CC1)[C@H](C)O)C(=O)N[C@H](CC(N)=O)C(=O)N1CCC[C@@H]1C(=O)O [gallium-68 labelled]	–	C57BL/6 mice, male, stomach	intravenous, 1.85 MBq, 60 min, added: GP12 blocking	0.91 ± 0.46
CC[C@H](C)[C@H](NC(=O)[C@@H](Cc1c[nH]c2ccccc12)NC(=O)[C@@H]1CCCN1C(=O)[C@H](CCCCN)NC(=O)[C@H](CCCCN)NC(=O)CCNC(=O)CCNC(=O)CN1CCN(CC(=O)O)CCN(CC(=O)O)CCN(CC(=O)O)CC1)C(=O)N[C@@H](C[Si](C)(C)C)C(=O)O [gallium-68 labelled]	ex vivo biodistribution	nude mice, HT-29 xenograft, intestine	90 min, added: levocabastine 0.5 µmol	0.57 ± 0.1
C[C@H](O)[C@@H](NC(=O)[C@H]1CCCN1C(=O)[C@@H](CCCCN)NC(=O)[C@@H](CO)NC(=O)[C@@H](Cc1ccc(O)cc1)NC(=O)[C@@H](CC(N)=O)NC(=O)CCOCCOCCOCCNC(=O)CN1CCN(CC(=O)O)CCN(CC(=O)O)CCN(CC(=O)O)CC1)C(=O)N[C@H](CC(=O)O)C(=O)N[C@H](CCCNC(=N)N)C(=O)N[C@H](CCC(N)=O)C(=O)N[C@H](Cc1ccc(O)cc1)C(=O)N[C@H](Cc1c[nH]cn1)C(=O)N[C@H](Cc1ccccc1)C(N)=O [gallium-68 labelled]	–	BALB/c nude mice U-87 MG tumour, pancreas	intravenous, 1.85 MBq, 1 h, radiolabelled	0.16 ± 0.03
CSCC[C@H](NC(=O)CNC(=O)[C@H](CCCCN)NC(=O)[C@H](CC(C)C)NC(=O)[C@@H]1CCCN1C(=O)[C@H](CO)NC(=O)[C@H](Cc1c[nH]cn1)NC(=O)[C@H](Cc1c[nH]c2ccccc12)NC(=O)[C@H](CCCNC(=N)N)NC(=O)[C@H](CC(C)C)NC(=O)[C@H](CCCNC(=N)N)NC(=O)[C@H](Cc1c[nH]c2ccccc12)NC(=O)[C@H](CS)NC(=O)CCCCCNC(=O)CN1CCN(CC(=O)O)CCN(CC(=O)O)CCN(CC(=O)O)CC1)C(=O)O [copper-64 labelled]	ex vivo biodistribution	C57BL/6J mice bearing B16-F10 tumours, liver	intravenous, 1.85 MBq, 2 h	20.7
CC[C@H](C)[C@H](NC(=O)[C@H](CCCNC(=N)N)NC(=O)[C@H](CCCCN)NC(=O)[C@H](Cc1ccc(O)cc1)NC(=O)[C@H](CC(=O)O)NC(=O)[C@H](C)NC(=O)CNC(=O)CCOCCOCCOCCNC(=O)CN1CCN(CC(=O)O)CCN(CC(=O)O)CCN(CC(=O)O)CC1)C(=O)N[C@H](C(=O)N[C@@H](CC(C)C)C(=O)N[C@@H](CCCCN)C(=O)N[C@H](C(=O)N[C@@H](CC(N)=O)C(N)=O)C(C)C)[C@@H](C)O [copper-64 labelled]	ex vivo gamma counting	C57BL/6J male mice, B16-F10 tumour, testis	intravenous, 1.85 MBq, 20 min	1.09 ± 0.454
CCCC[C@H]1C(=O)N(C)[C@@H](CCCC)C(=O)N[C@@H](CCCNC(=O)CN2CCN(CC(=O)O)CCN(CC(=O)O)CCN(CC(=O)O)CC2)C(=O)N[C@H](C(=O)NCC(N)=O)CSCC(=O)N[C@@H](Cc2ccc(O)cc2)C(=O)N(C)[C@@H](C)C(=O)N[C@@H](CC(N)=O)C(=O)N2CCC[C@H]2C(=O)N[C@@H](Cc2c[nH]cn2)C(=O)N[C@@H](CC(C)C)C(=O)N(C)CC(=O)N[C@@H](Cc2c[nH]c3ccccc23)C(=O)N[C@@H](CO)C(=O)N[C@@H](Cc2c[nH]c3ccccc23)C(=O)N1C [gallium-68 labelled]	–	NOD/SCID mice, CHO-hPD-L1 xenograft, spleen	60 min, PBS pretreatment	3.1 ± 0.24

Excerpt of the above:
Structure (SMILES)	test	system	setting	tissue uptake [%ID/g]
CCCC[C@H]1C(=O)N(C)[C@@H](CCCC)C(=O)N[C@@H](CCCNC(=O)CN2CCN(CC(=O)O)CCN(CC(=O)O)CCN(CC(=O)O)CC2)C(=O)N[C@H](C(=O)NCC(N)=O)CSCC(=O)N[C@@H](Cc2ccc(O)cc2)C(=O)N(C)[C@@H](C)C(=O)N[C@@H](CC(N)=O)C(=O)N2CCC[C@H]2C(=O)N[C@@H](Cc2c[nH]cn2)C(=O)N[C@@H](CC(C)C)C(=O)N(C)CC(=O)N[C@@H](Cc2c[nH]c3ccccc23)C(=O)N[C@@H](CO)C(=O)N[C@@H](Cc2c[nH]c3ccccc23)C(=O)N1C [gallium-68 labelled]	–	NOD/SCID mice, CHO-hPD-L1 xenograft, spleen	60 min, PBS pretreatment	3.1 ± 0.24
